Results gathered from unrelated publications.
Each line is one published result; not all experiments were run side by side.
Target: Mitogen-activated protein kinase 8 (MAPK8, Homo sapiens, UniProt P45983)
UniProt P45983, sequence (whole entry, looked up): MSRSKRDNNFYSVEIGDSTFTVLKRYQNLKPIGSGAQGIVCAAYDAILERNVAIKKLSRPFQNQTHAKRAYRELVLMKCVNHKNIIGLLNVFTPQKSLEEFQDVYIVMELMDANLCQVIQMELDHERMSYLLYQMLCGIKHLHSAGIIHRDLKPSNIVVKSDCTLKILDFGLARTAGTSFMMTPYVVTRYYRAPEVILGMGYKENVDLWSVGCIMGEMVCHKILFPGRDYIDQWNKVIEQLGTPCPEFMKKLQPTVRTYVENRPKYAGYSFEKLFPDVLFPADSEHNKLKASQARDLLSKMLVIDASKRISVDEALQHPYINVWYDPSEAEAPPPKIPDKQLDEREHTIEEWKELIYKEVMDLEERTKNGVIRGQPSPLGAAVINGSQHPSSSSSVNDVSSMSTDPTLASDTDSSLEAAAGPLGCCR

SMILES = O=C1NC(=O)/C(=C/c2ccc(-c3ccc(F)cc3O)o2)S1; assay = enzyme activity; setting = 10 µM; quantity = remaining activity; result = 99%
SMILES = C=CC(=O)N1CCC(COCC(=O)N2CCN(c3nc(-c4cnc(N)nc4C(F)F)nc(N4CCOC[C@@H]4C)n3)CC2)CC1; assay = KINOMEscan; setting = 1 µM; how to read = reference: DMSO control; quantity = remaining binding; result = 93%
SMILES = Cc1cc(NC(=O)c2cccc(NC(=O)/C=C/CN(C)C)c2)ccc1Nc1nccc(-c2cccnc2)n1; assay = enzyme activity, inhibitor; setting = 0.06097 µM, 0 h, unit not given, added: GSH 10 mM pre-incubation; how to read = reference: vehicle; quantity = remaining activity; result = 0.389
SMILES = O=C(Nc1nnc(-c2ccncc2)s1)C(F)(F)Br; assay = binding, isothermal titration calorimetry; quantity = ligand efficiency; result = 0.38
SMILES = COc1cc(F)ccc1-c1ncnc(Nc2cccc(C[S@](C)(=N)=O)c2)n1; assay = kinase activity; setting = 10 µM, added: 10 µM ATP; quantity = remaining activity; result = 90%
SMILES = C1=C/COCc2cc(ccc2OCCN2CCCC2)Nc2nccc(n2)-c2cccc(c2)COC/1; setting = concentration not given, kinase construct JNK1; how to read = reference: control; quantity = binding; result = 12%
SMILES = Cc1cc(Nc2cc(N3CCN(C)CC3)nc(Sc3ccc(NC(=O)C4CC4)cc3)n2)[nH]n1; assay = kinase activity, KinaseProfiler; setting = 0.03 µM, species human; how to read = reference: control; quantity = remaining activity; result = 105%
SMILES = O=C(NC1CCC1)c1ccc2nc(-c3cccc(NS(=O)(=O)NCCN4CCCCC4)c3)cn2c1; assay = enzyme activity; setting = 10 µM; quantity = remaining activity; result = 99%
SMILES = Cc1cc(-c2cccc(-n3cc(COC(=O)[C@]4(C)C=C(C(=O)OC(C)(C)C)C(=O)CC4)nn3)c2)c(C)c2c1CNCC2; assay = D-peptide binding, inhibitor, FP peptide displacement; setting = 0.7812 µM; how to read = lower is stronger displacement; quantity = fraction bound; result = 0.754
SMILES = O=C(Nc1nnc(-c2ccncc2)s1)C(F)(F)Cl; assay = binding, isothermal titration calorimetry; quantity = ligand efficiency; result = 0.37
SMILES = C#CCCOC(=O)[C@]1(C)C=C(C(=O)OC(C)(C)C)C(=O)CC1; assay = D-peptide binding, inhibitor, FP peptide displacement; setting = 25 µM; how to read = lower is stronger displacement; quantity = fraction bound; result = 0.274
SMILES = O=C(Nc1nnc(-c2ccncc2)s1)C(F)(F)I; assay = binding, isothermal titration calorimetry; quantity = ligand efficiency; result = 0.39
SMILES = C=CC(=O)N1CCC(C(=O)NCC(=O)N2CCN(c3nc(-c4cnc(N)nc4C(F)F)nc(N4CCOCC4)n3)CC2)CC1; assay = KINOMEscan; setting = 1 µM; quantity = remaining binding; result = 93%

For quick reference, copied from above:
SMILES = C=CC(=O)N1CCC(COCC(=O)N2CCN(c3nc(-c4cnc(N)nc4C(F)F)nc(N4CCOC[C@@H]4C)n3)CC2)CC1; assay = KINOMEscan; setting = 1 µM; how to read = reference: DMSO control; quantity = remaining binding; result = 93%
